Measured values collected from several papers.
Protocols differ between the studies behind these lines. Numbers after ± are the reported error.
CHRM1: Muscarinic acetylcholine receptor M1 (CHRM1, Homo sapiens, UniProt P11229)
Chain of UniProt P11229 (whole entry, looked up): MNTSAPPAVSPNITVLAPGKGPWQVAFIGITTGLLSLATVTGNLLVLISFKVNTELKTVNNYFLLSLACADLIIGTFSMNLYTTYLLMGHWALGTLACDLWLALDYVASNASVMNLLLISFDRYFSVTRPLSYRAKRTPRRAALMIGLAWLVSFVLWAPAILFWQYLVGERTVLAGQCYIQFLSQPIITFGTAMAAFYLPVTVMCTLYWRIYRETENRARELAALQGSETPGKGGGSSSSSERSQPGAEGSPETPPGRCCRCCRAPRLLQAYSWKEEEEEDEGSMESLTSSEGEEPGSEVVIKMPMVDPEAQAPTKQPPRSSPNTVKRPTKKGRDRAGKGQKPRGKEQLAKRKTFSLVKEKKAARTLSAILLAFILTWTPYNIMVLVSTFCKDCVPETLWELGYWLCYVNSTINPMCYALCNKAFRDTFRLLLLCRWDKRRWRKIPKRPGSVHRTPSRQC
Chain of UniProt P12369 (whole entry, unmodified, looked up): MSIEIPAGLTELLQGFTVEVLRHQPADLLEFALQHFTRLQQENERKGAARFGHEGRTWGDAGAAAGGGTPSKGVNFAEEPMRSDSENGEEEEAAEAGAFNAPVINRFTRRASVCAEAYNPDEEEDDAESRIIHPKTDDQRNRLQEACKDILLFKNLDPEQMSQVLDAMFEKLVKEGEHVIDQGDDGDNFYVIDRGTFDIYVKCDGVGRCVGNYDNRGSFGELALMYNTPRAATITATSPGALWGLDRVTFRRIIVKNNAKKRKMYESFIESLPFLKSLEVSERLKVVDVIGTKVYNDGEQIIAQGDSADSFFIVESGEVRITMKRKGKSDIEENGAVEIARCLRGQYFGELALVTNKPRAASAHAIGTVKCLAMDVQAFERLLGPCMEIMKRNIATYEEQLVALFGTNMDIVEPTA
Chain of UniProt Q80VM9 (whole entry, unmodified, looked up): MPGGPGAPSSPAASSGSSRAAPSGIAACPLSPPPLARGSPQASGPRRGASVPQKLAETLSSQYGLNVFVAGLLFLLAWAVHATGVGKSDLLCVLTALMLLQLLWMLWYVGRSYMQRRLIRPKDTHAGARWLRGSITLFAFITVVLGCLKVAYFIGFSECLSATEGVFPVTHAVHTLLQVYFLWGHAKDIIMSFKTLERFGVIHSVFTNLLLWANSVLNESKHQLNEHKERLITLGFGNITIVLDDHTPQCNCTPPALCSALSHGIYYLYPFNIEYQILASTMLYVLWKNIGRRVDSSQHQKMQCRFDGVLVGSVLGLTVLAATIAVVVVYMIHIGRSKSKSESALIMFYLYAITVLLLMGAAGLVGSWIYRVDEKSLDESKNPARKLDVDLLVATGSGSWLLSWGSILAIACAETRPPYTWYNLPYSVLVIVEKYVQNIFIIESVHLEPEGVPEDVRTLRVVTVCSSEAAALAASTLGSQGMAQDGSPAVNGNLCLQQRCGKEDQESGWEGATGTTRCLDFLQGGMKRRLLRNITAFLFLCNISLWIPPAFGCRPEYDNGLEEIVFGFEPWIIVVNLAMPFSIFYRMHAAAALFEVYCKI
Chain of UniProt O58586 (whole entry, looked up): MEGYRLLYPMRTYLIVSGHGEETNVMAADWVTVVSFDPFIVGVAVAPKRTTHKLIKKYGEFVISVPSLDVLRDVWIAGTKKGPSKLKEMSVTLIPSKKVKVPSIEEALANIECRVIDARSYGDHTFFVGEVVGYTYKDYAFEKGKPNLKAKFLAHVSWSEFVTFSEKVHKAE
Chain of UniProt Q59490 (whole entry, looked up): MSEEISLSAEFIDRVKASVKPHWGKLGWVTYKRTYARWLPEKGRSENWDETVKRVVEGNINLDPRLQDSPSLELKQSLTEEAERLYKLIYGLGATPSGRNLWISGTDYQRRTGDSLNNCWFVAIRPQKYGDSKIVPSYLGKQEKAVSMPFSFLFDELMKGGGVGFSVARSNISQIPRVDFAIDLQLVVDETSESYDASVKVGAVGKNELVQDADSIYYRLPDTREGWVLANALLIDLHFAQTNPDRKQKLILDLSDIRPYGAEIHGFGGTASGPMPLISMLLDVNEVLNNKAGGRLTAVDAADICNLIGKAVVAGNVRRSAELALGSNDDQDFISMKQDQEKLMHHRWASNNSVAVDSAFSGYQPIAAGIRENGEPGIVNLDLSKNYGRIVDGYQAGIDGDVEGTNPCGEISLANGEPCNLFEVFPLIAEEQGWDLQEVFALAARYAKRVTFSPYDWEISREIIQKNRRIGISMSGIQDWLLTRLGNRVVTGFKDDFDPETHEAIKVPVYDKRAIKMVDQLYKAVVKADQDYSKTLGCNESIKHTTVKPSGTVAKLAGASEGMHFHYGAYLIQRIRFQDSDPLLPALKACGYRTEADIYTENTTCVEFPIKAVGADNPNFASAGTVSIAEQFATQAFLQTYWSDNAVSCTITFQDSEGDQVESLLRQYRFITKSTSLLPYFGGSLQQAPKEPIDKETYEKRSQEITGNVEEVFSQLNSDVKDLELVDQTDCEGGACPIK
Chain of UniProt Q9Y5Y9 (whole entry, looked up): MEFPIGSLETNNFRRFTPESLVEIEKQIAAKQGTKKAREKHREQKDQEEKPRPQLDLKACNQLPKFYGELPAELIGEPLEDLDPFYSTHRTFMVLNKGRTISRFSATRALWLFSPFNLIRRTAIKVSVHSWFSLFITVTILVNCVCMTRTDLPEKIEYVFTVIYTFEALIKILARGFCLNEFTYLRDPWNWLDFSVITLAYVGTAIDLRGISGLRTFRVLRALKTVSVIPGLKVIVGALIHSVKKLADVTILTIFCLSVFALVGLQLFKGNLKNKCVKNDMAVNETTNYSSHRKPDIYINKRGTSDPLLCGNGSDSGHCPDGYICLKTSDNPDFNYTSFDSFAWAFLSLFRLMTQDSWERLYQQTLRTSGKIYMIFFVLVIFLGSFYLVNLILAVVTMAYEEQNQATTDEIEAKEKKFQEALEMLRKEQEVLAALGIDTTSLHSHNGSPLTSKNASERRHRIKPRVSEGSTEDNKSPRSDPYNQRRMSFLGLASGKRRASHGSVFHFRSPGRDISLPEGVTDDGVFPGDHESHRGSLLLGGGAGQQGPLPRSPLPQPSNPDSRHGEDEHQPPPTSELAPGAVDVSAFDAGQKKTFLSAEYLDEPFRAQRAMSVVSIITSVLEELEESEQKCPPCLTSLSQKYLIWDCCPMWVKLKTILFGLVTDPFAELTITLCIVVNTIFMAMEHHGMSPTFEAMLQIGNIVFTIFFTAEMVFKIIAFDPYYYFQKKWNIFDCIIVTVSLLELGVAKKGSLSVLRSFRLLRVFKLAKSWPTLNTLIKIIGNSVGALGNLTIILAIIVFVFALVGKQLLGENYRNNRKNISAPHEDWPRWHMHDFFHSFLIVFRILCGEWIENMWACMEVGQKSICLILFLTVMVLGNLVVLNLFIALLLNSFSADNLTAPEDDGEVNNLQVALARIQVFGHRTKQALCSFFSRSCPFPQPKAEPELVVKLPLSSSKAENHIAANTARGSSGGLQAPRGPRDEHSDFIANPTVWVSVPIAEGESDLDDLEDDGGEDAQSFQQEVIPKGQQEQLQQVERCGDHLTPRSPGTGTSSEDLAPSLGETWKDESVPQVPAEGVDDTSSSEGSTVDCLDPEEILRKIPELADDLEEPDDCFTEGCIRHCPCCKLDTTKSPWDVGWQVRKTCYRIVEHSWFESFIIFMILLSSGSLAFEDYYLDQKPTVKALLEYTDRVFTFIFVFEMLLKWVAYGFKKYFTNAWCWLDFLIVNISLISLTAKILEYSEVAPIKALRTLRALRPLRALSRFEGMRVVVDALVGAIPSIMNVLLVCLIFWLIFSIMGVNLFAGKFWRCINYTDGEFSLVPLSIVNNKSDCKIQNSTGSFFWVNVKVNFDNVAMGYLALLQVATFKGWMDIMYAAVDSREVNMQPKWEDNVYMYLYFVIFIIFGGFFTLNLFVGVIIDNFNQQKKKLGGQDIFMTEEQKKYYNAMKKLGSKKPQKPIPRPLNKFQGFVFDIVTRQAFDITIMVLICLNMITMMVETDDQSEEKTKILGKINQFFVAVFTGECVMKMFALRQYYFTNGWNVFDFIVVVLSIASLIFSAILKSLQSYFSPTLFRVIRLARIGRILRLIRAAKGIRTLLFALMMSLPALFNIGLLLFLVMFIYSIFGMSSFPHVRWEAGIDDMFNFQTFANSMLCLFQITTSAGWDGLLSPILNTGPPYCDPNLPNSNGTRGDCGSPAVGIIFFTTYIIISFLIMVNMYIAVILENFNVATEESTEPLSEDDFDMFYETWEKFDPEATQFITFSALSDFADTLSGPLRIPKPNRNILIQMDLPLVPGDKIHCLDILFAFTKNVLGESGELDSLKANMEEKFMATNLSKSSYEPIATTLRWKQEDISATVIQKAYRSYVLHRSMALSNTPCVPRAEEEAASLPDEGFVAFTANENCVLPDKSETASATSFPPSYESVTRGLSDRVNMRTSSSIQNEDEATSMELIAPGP
Chain of UniProt Q6P5F7 (whole entry, looked up): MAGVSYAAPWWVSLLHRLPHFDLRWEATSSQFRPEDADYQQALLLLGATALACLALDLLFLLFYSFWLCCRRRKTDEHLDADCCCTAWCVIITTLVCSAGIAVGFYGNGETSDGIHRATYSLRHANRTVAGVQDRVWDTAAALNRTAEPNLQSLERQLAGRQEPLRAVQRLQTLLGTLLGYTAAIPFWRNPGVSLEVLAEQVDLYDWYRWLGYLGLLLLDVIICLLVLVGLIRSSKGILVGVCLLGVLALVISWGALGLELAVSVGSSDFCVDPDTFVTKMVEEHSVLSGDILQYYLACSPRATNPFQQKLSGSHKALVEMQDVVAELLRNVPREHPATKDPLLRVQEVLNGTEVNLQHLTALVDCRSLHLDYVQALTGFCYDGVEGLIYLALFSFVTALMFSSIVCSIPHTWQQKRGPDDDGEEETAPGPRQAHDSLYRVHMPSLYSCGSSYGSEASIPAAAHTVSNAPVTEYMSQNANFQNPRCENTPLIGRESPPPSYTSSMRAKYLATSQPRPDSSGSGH

NS(=O)(=O)c1ccc(COc2ccccc2-c2cc(=O)n(C3CCCCC3O)cn2)cc1 (stereo not drawn) — change in baseline activity (CHRM1; allosteric agonist, IP1 accumulation; CHO-M1 cells; 10 µM, unit not given; relative to: maximum ACh response): 64.2 ± 2.5
CCCCOc1ccc(C(=O)Nc2ccccc2F)cc1 — potentiation (Grm5 (Rattus norvegicus, UniProt P31424); calcium mobilization, positive allosteric modulator; HEK293; concentration not given, added: EC20 glutamate; relative to: maximal glutamate response): 84%
CCc1c(C)n(Cc2ccc(-c3ccccc3C(=O)O)cc2)c2ccc(Br)cc12 — Emax (PPARG (Homo sapiens, UniProt P37231); COS-7; 10 µM, 39 h): 33.8%
O=c1cc(-c2ccccc2OCc2ccc(Br)cc2F)ncn1C1CCCCC1O (stereo not drawn) — ΔpEC50 of ACh (CHRM1; positive allosteric modulator, IP1 accumulation; CHO-M1 cells; 1 µM, 60 min, 37 °C, added: ACh; relative to: ACh alone, higher = stronger potentiation): 0.37 ± 0.09 log units
Nc1ccn([C@@H]2O[C@H](COP(=O)(O)OP(=O)(O)OP(=O)(O)O)[C@@H](O)C2(F)F)c(=O)n1 — inactivation (Adenosylcobalamin-dependent ribonucleoside-triphosphate reductase (rtpR, Lactobacillus leichmannii, UniProt Q59490); mechanism-based inactivator; 1 eq, under 2 min, pH 7.5, 37 °C, added: AdoCbl and dATP): 100%
Cc1ccc(C(=O)Nc2ccc3ccccc3c2)o1 — effect on acid-evoked current (Otop1 (Mus musculus, UniProt Q80VM9, I241A); whole-cell patch-clamp; concentration not given, pH 6.0; relative to: wild type): decreased
CCn1cc(-c2ccc(COc3ccccc3-c3cc(=O)n(C4CCCCC4O)cn3)cc2)cn1 (stereo not drawn) — change in baseline activity (CHRM1; allosteric agonist, IP1 accumulation; CHO-M1 cells; 1 µM, unit not given; relative to: maximum ACh response): 43.5 ± 2.6
Cc1cc(Nc2ncc(Cl)c(Nc3ccccc3S(=O)(=O)C(C)C)n2)c(OC(C)C)cc1C1CCN(CC(=O)NCCOCCOCCOCCOCCOCCNc2cccc3c2C(=O)N(C2CCC(=O)NC2=O)C3=O)CC1 (stereo not drawn) — recovery onset time (NPM/ALK (Nucleophosmin/ALK tyrosine kinase receptor) (NPM1/ALK, Homo sapiens, UniProt P06748+Q9UM73); protein degradation, degrader, western blot; SU-DHL-1; 100 nM, 2 h, after washout): 8 h
CCC(CC)CSc1nc2c([nH]1)c(=S)n(C)c(=O)n2C — remaining activity (PGR (Homo sapiens, UniProt P06401); reporter gene, antagonist, MMTV-luciferase; T47D/A1-2; 10 µM, 24 h, added: 5 nM progesterone; relative to: maximal activity): 24%
O=C1C=CCCC1 — kox (Uncharacterized protein PH0856 (Pyrococcus horikoshii, UniProt O58586); reduced FMN reoxidation, substrate, stopped-flow; pH 7.0, 37 °C, anoxic): 18 s⁻¹
COc1ccc(C)c2sc(NC(=O)N3CCCCC3)nc12 — activity (CHRM4 (Homo sapiens, UniProt P08173); calcium mobilization, positive allosteric modulator; CHO expressing hM4 and Gqi5; concentration not given, added: acetylcholine EC20): inactive
O=C(Nc1ncnc2c1ncn2[C@@H]1O[C@@H]2COP(=O)(O)OC2C1O)c1ccccc1 (stereo in doubt) — selectivity ratio (cAMP-dependent protein kinase type II-beta regulatory subunit, holoenzyme with catalytic subunit (Prkar2b, Rattus norvegicus, UniProt P12369, S112A); PKA holoenzyme activation, activator, fluorescence anisotropy; relative to: RIIβ over RIα, higher = RIIβ-selective): 4.9
N[C@@H](CCC(=O)O)C(=O)O — permeability ratio (Protein tweety homolog 3 (Ttyh3, Mus musculus, UniProt Q6P5F7); permeant anion, whole-cell patch clamp; HEK-293T co-expressing AQP4; 70 mM, hypo-osmotic solution; relative to: compound over chloride): ~0.26
CN(C)S(=O)(=O)c1ccc(COc2ccccc2-c2cc(=O)n(C3CCCCC3O)cn2)cc1 (stereo not drawn) — ΔpEC50 of ACh (CHRM1; positive allosteric modulator, IP1 accumulation; CHO-M1 cells; 10 µM, 60 min, 37 °C, added: ACh; relative to: ACh alone, higher = stronger potentiation): 0.65 ± 0.09 log units
CCC(C(=O)Nc1c(C)csc1C(=O)OC)N1CCN(C(C)C)CC1 (stereo not drawn) — capacity factor k′ (SCN10A (Homo sapiens, UniProt Q9Y5Y9); cell membrane chromatography; higher = stronger binding): 63

Repeated from above:
COc1ccc(C)c2sc(NC(=O)N3CCCCC3)nc12 — activity (CHRM4 (Homo sapiens, UniProt P08173); calcium mobilization, positive allosteric modulator; CHO expressing hM4 and Gqi5; concentration not given, added: acetylcholine EC20): inactive
O=C(Nc1ncnc2c1ncn2[C@@H]1O[C@@H]2COP(=O)(O)OC2C1O)c1ccccc1 (stereo in doubt) — selectivity ratio (cAMP-dependent protein kinase type II-beta regulatory subunit, holoenzyme with catalytic subunit (Prkar2b, Rattus norvegicus, UniProt P12369, S112A); PKA holoenzyme activation, activator, fluorescence anisotropy; relative to: RIIβ over RIα, higher = RIIβ-selective): 4.9
